# Measured values pooled from the literature.
# Each line is one published result; not all experiments were run side by side. Values joined by “and” are separate records of one study, mostly repeats; a detail may differ. Numbers after ± are the reported error.
# Dehaloperoxidase B ferric: Dehaloperoxidase B, ferric (Amphitrite ornata, UniProt Q9NAV7)
# MT-CYB/UQCRFS1: MT-CYB/UQCRFS1 (Homo sapiens, UniProt P00156+P47985)
# KEAP1 Kelch domain: Kelch-like ECH-associated protein 1, Kelch domain (KEAP1, Homo sapiens, UniProt Q14145)
Structure (SMILES),tested on,assay,system,setting,scale,endpoint,result
O=C1C=Nc2ccc(Br)cc21,Dehaloperoxidase B ferric,"product, HPLC",,"together with: 5-bromoindole 500 µM, H2O2 100 µM",,share of total products,42.7%
O=C(O)c1ccc(Nc2ncc3c(n2)-c2ccc(Cl)cc2C(c2c(F)cccc2F)=NC3)cc1,human PAR-1Bα(h),kinase activity,,1 µM,,remaining activity,101%
NC(=O)NOCCCCCCCCCC[P+](c1ccccc1)(c1ccccc1)c1ccccc1.O=C([O-])C(F)(F)F,MT-CYB/UQCRFS1,"complex III-dependent respiration, Seahorse XF96",HCT-116,"15 µM, 24 h",baseline: control,oxygen consumption rate,64.3 ± 8.25%
N#Cc1ccc2[nH]cc(CCCCN3CCN(c4ccc5oc(C(N)=O)cc5c4)CC3)c2c1,"SLC6A4 (Homo sapiens, UniProt P31645, F341V)","[3H]5-HT uptake, inhibitor",COS-7,,,Hill coefficient,1.65 ± 0.23
NC(=O)NO,MT-CYB/UQCRFS1,"complex III-dependent respiration, Seahorse XF96",HCT-116,"500 µM, 24 h",baseline: control,oxygen consumption rate,88.9 ± 7.09%
C=CC(=O)N1CCC(COCC(=O)N2CCN(c3nc(-c4cnc(N)nc4C(F)F)nc(N4CCOC[C@@H]4C)n3)CC2)CC1,"CDK15 (Homo sapiens, UniProt Q96Q40)",KINOMEscan,,1 µM,,remaining binding,95%
Nc1ncnc2c1ncn2[C@@H]1O[C@H](COP(=O)(O)CP(=O)(O)OP(=O)(O)O)[C@@H](O)[C@H]1O,"P2X purinoceptor 1 (P2RX1, Homo sapiens, UniProt P51575, E122A)",calcium influx,,1 µM,baseline: ionomycin response,calcium influx,27.4% and 20.5% and 16.9% and 16.1%
CCN(O)N=Nc1ccc(S(=O)(=O)Nc2nccs2)cc1,"α-glucosidase, rat intestine",enzyme activity,,"120 µg/mL, together with: 4-nitrophenyl α-D-glucopyranoside",,inhibition,32.5 ± 0.04%
[H]/N=C(/N)NCC(=O)O,"SLC6A6 (Homo sapiens, UniProt P31641, L306A)","binding, microscale thermophoresis",,"500 µM, room temperature, together with: 50 nM labelled protein",higher = more binding,normalised MST signal,-0.0208
Nc1ncnc2c1ncn2[C@@H]1O[C@H](CO[P@](=O)(O)O[P@](=O)(O)O[P@@](=O)(O)S)[C@@H](O)[C@H]1O,"GUK1 (Homo sapiens, UniProt Q16774)","binding, isothermal titration calorimetry",,"molar ratio 0.4975, fitted curve",,ΔH,-1.54 kcal/mol
O=C1Cc2ccccc2N1,Dehaloperoxidase B ferric,"product, HPLC",,"5 min, pH 7, 25 °C, enzyme 10 µM, together with: indole and H2O2 500 µM each",,product formed,37.3 M
CC(C)C[C@H](NC(=O)[C@@H](N)[C@@H](C)O)C(=O)N[C@@H](CCC(N)=O)C(=O)N1CCC[C@H]1C(=O)N1CCC[C@H]1C(=O)N[C@@H](C)C(=O)N[C@@H](CO)C(=O)N[C@@H](CO)C(=O)N[C@@H](CCCNC(=N)N)C(=O)N[C@H](CCCNC(=N)N)C(=O)N[C@@H](CCCNC(=N)N)C(=O)N[C@@H](Cc1c[nH]cn1)C(=O)N[C@@H](Cc1ccccc1)C(=O)N[C@@H](Cc1c[nH]cn1)C(=O)N[C@@H](Cc1c[nH]cn1)C(=O)N[C@@H](C)C(=O)N[C@@H](CC(C)C)C(=O)N1CCC[C@H]1C(=O)N1CCC[C@H]1C(=O)N[C@@H](C)C(=O)N[C@@H](CCCCNC(=N)N)C(=O)O,"C3AR1 (Homo sapiens, UniProt Q16581)","β-arrestin recruitment, agonist, Tango",HTLA transfected,overnight,,Emax,91.6 % basal
CC(C)C[C@H](NC(=O)C[C@H](O)[C@H](CC(C)C)NC(=O)[C@H](Cc1c[nH]cn1)NC(=O)CNC(=O)[C@@H](NC(=O)[C@H](C)NC(=O)[C@H](Cc1c[nH]c2ccccc12)NC(=O)[C@H](CCC(N)=O)NC(=O)[C@@H](Cc1ccccc1)NC(=O)COCCOCCNC(=O)CCC(C(=O)O)N1CCN(CC(=O)O)CCN(CC(=O)O)CCN(CC(=O)O)CC1)C(C)C)C(N)=O (stereo partly shown) [lutetium-177 labelled],,,"BALB/c nu/nu mice, muscle","intravenous, 250 pmol, 1 h, together with: PA 300 µg",,tissue uptake,0.15 ± 0.05 %ID/g
Cn1cc(-c2ccc(-c3cncc(Cl)c3N3CCC4(CCNC4=O)CC3)cc2)cn1,COLO 205,"gene expression, microarray, refers to: CLU mRNA",,"concentration not given, 6 h",baseline: untreated cells,log2 fold change,2.28
CC[C@@H]1[C@H](F)C(=O)N[C@@H]1COc1nccc2cc(C(N)=O)c(OC)cc12,"OXSR1 (Homo sapiens, UniProt O95747)","ATP-site probe binding, ActivX profiling, refers to: OSR1",THP-1 cell lysate,"0.01 mM, Lys2 site",,inhibition,-18.1%
O=S(=O)(O)C1CCNCC1,"SLC6A6 (Homo sapiens, UniProt P31641, Y138A)","binding, microscale thermophoresis",,"125 µM, room temperature, together with: 50 nM labelled protein",higher = more binding,normalised MST signal,-0.0026
NC(=O)NOCCCCCCCCCCCC[P+](c1ccccc1)(c1ccccc1)c1ccccc1.O=C([O-])C(F)(F)F,MT-CYB/UQCRFS1,"complex III-dependent respiration, Seahorse XF96",HCT-116,"1 µM, 24 h",baseline: control,oxygen consumption rate,92.1 ± 11.1%
Nc1nc2c(ncn2[C@@H]2O[C@H](COP(=O)(O)OP(=O)(O)O[C@H]3O[C@H](CO)[C@@H](O)[C@H](O)[C@@H]3O)[C@@H](O)[C@H]2O)c(=O)[nH]1,AncA-Alt ancestral enzyme,"substrate, GDP-Glo GDP release",,"pH 6.5, 27 °C, apparent Km, together with: 25 mM mannose acceptor",,Km,470 ± 20 µM
C=CC(=O)N1CCC[C@@H](n2nc(-c3ccc(Oc4ccccc4)cc3)c3c(N)ncnc32)C1,"DYRK3 (Homo sapiens, UniProt O43781)",,,10 µM,,remaining activity,41.2%
O=C(COP(=O)(O)O)[C@@H](O)[C@H](O)[C@H](O)COP(=O)(O)O,"14-3-3 protein eta (Homo sapiens, UniProt Q04917)","thermal proteome profiling, refers to: YWHAH",HepG2 cell lysate,"concentration not given, 57 over 37 °C",baseline: compound over control,thermal stability ratio,0.349 and 0.625 and 0.727
CSCC[C@H](NC(=O)[C@H](CCC(N)=O)NC(=O)[C@H](CC(C)C)NC(=O)[C@H](CO)NC(=O)[C@H](CCC(N)=O)NC(=O)[C@H](CC(C)C)NC(=O)[C@H](CCC(=O)O)NC(=O)CNC(=O)[C@@H](NC(=O)[C@H](CO)NC(=O)[C@@H]1CCCN1C(=O)[C@H](CC(=O)O)NC(=O)[C@@H](NC(=O)[C@H](CCC(=O)O)NC(=O)[C@H](CCCCN)NC(=O)[C@H](CO)NC(=O)[C@H](CO)NC(=O)[C@H](CC(C)C)NC(C)=O)C(C)C)[C@@H](C)O)C(=O)N1CCC[C@H]1C(=O)N[C@@H](CCC(=O)O)C(N)=O,KEAP1 Kelch domain,"binding, ITC",,"pH 7, 298.15 K",,ΔG,-7.9 ± 0.04 kcal/mol
O=C(O)c1cc2cccc([N+](=O)[O-])c2[nH]1,"Protein lin-28 homolog A (Mus musculus, UniProt Q8K3Y3)",,,,,Hill slope,-0.9
COc1cc(O)c2c(c1)C(=O)c1cc(C)cc(O)c1C2=O,HK-2 co-cultured with HepaRG,MTT,,"266.67 µM, 48 h",baseline: untreated control,viability,28.8 ± 3.98%
CCC1(O)CCCN(C(=O)c2ccc(-c3ccc(F)c(NC(=O)CCl)c3)cc2)C1 (stereo not shown),"DNA dC->dU-editing enzyme APOBEC-3B, C-terminal domain (Homo sapiens, UniProt Q9UH17)","covalent modifier, intact protein mass spectrometry, refers to: adduct +25721 Da",,"125 µM, 1 h, 5-fold molar excess",,protein adduct,42%
O=c1nc(SCc2cc(F)cc(C(F)(F)F)c2)nc(SCc2ccc3sccc3c2)[nH]1,"TOP2A (Homo sapiens, UniProt P11388)",DNA cleavage,,7.8 µM,,mean linear DNA,0%
CC[C@H](C)[C@H](NC(C)=O)C(=O)N[C@@H](CC(N)=O)C(=O)N[C@H](C(=O)N[C@@H](CCCNC(=N)N)C(=O)N[C@@H](CCCCN)C(=O)N[C@@H](CCCNC(=N)N)C(=O)N[C@@H](CC(N)=O)C(=O)N[C@H](C(=O)N[C@@H](CCC(=O)O)C(=O)N[C@@H](CO)C(=O)NCC(=O)N[C@@H](CCC(=O)O)C(=O)N[C@@H](CCC(=O)O)C(=O)N[C@@H](CCC(=O)O)C(=O)N[C@@H](CC(C)C)C(=O)N[C@@H](C)C(=O)N[C@@H](CO)C(=O)N[C@@H](CCCCN)C(=O)N[C@@H](CC(C)C)C(=O)N[C@@H](CC(=O)O)C(N)=O)C(C)C)C(C)C,KEAP1 Kelch domain,"binding, ITC",,"pH 7, 298.15 K",,TΔS,-10.6 kcal/mol
Oc1ccc(/C=C/c2cc(O)cc(O)c2)cc1,"O-methyltransferase (Sorghum bicolor, UniProt A0A1B6PFV1)",,,"concentration not given, together with: ADE+",,ΔG of binding,-7.41 kcal/mol
CCN1CCC[C@H]1CNC(=O)c1c(O)c(Cl)cc(Cl)c1OC,"Opsin-3 (OPN3, Homo sapiens, UniProt Q9H1Y3)","β-arrestin recruitment, TANGO luminescence, refers to: OPN3",,concentration not given,baseline: basal luminescence,log2 fold change,-0.66
Cc1cccc(N(O)N=Nc2ccc(S(=O)(=O)Nc3cc(C)on3)cc2)c1,"α-glucosidase, rat intestine",enzyme activity,,"240 µg/mL, together with: 4-nitrophenyl α-D-glucopyranoside",,inhibition,40 ± 0.04%
CN(C)C(=O)c1cc2cnc(Nc3ccc(N4CCNCC4)cn3)nc2n1C1CCCC1,"PDE3B (Homo sapiens, UniProt Q13370)",HTRF,,0.3 to 10 µM,,enzyme activity,no effect
CN(O)N=Nc1ccc(S(=O)(=O)Nc2nccs2)cc1,"α-glucosidase, rat intestine",enzyme activity,,"240 µg/mL, together with: 4-nitrophenyl α-D-glucopyranoside",,inhibition,52.5 ± 0.04%
CCNC(=O)/C=C/c1cccc(Br)c1,"SLC6A19 (Homo sapiens, UniProt Q695T7)","inhibitor, radiolabelled uptake",CHO-BC cells,"30 µM, with Na+, together with: L-[14C]leucine, GPNA 3 mM, JPH203 3 µM",,L-leucine uptake,9.09 nmol/6 min/mg protein and 8.62 nmol/6 min/mg protein and 7.34 nmol/6 min/mg protein
Cc1cc(O)c2c(c1)C(=O)c1cccc(O)c1C2=O,HK-2 co-cultured with HepaRG,MTT,,"66.67 µM, 48 h",baseline: untreated control,viability,56.9 ± 16.7%
C=CC(=O)Nc1ccccc1CN(C(=O)Nc1cccc(C(F)(F)F)c1)C1CCN(C(C)CCC)CC1 (stereo not shown),"DCN1-like protein 1 (Homo sapiens, UniProt Q96GG9)","covalent binder, LC-TOF mass spectrometry",,"60 µM, overnight, 4 °C, together with: DCN1-like protein 1 30 µM",,covalent adduct formation,100%

# Excerpt of the above:
Structure (SMILES),tested on,assay,system,setting,scale,endpoint,result
NC(=O)NOCCCCCCCCCC[P+](c1ccccc1)(c1ccccc1)c1ccccc1.O=C([O-])C(F)(F)F,MT-CYB/UQCRFS1,"complex III-dependent respiration, Seahorse XF96",HCT-116,"15 µM, 24 h",baseline: control,oxygen consumption rate,64.3 ± 8.25%
C=CC(=O)N1CCC(COCC(=O)N2CCN(c3nc(-c4cnc(N)nc4C(F)F)nc(N4CCOC[C@@H]4C)n3)CC2)CC1,"CDK15 (Homo sapiens, UniProt Q96Q40)",KINOMEscan,,1 µM,,remaining binding,95%
O=S(=O)(O)C1CCNCC1,"SLC6A6 (Homo sapiens, UniProt P31641, Y138A)","binding, microscale thermophoresis",,"125 µM, room temperature, together with: 50 nM labelled protein",higher = more binding,normalised MST signal,-0.0026
Oc1ccc(/C=C/c2cc(O)cc(O)c2)cc1,"O-methyltransferase (Sorghum bicolor, UniProt A0A1B6PFV1)",,,"concentration not given, together with: ADE+",,ΔG of binding,-7.41 kcal/mol
O=C1Cc2ccccc2N1,Dehaloperoxidase B ferric,"product, HPLC",,"5 min, pH 7, 25 °C, enzyme 10 µM, together with: indole and H2O2 500 µM each",,product formed,37.3 M
